Published values gathered from unrelated publications.
± marks the error that the study gave. In brackets after ≈: the same amount, converted by molar mass.

The selectivity index of `CC1(CCCCCCCCCCOCCCOP(=O)(O)CO[C@H](CO)Cn2ccc(N)nc2=O)COC1` is reported as over 50 (human alphaherpesvirus 3; HFF, Ellen; baseline: CC50 over EC50).
Under antibacterial activity, `O=C(CN(CCNC(=O)OCC1c2ccccc2-c2ccccc21)C(=O)CCc1cn(C[c-]2cccc2)nn1)Nc1ccc(I)cc1.[Fe+2].c1cc[cH-]c1` is recorded as “inactive” (Bacillus subtilis, Staphylococcus aureus; MIC; including MRSA; up to 512 µg/mL).
`COc1cccc(NC(=O)c2[nH]c3cc(C)sc3c2CN2CCCCC2)c1` gave an IC50 of over 10 µM (Giardia duodenalis; parasite growth; 48 h).
With `Nc1ccn(C[C@@H](CO)OCP(=O)(O)OCCCS(=O)(=O)CCCCCCCCCCC2CCC2)c(=O)n1` the selectivity index was 25 (human alphaherpesvirus 3; HFF, Ellen; baseline: CC50 over EC50).
For `CC(=O)[O-].O.[Cu+2].[O-]c1ccc(Br)cc1C=NCCN1CCOCC1`, “inhibition zone diameter” read 19 mm (Mucor indicus; 20 µL of 100 µM per disc).
With `CSc1ccccc1NC(=O)c1[nH]c2cc(C)sc2c1CN1CCOCC1` the IC50 was at most 10 µM (Giardia duodenalis; parasite growth).
`c1ccc(CN2CCOCCOCCN(CCCCCCCCN3CCOCCOCCN(CCCCCCCCN4CCOCCOCCN(Cc5ccccc5)CCOCCOCC4)CCOCCOCC3)CCOCCOCC2)cc1` — result for “MIC of tetracycline”: 82 ± 15 µM (Escherichia coli; tetracycline-resistant; 62 µM).
With `CCOC(=O)C(C)NC(=O)CN1C(=O)S/C(=C\c2ccc(F)cc2)C1=O` (centres unmarked) the IC50 was over 10 µM (Leishmania donovani; parasite growth; 24 h, intracellular, amastigote).
`CCC1(C)CCN(Cc2cc(N(C)C)c3c(c2O)C(=O)C2=C(O)[C@]4(O)C(=O)C(C(N)=O)=C(O)[C@@H](N(C)C)[C@@H]4C[C@@H]2C3)CC1` gave an MIC of 1 µg/mL (≈ 1.68 µM) (Enterococcus faecalis; JH2-2(pMV158), Tet L efflux).
Under activity, `CC(C)(C)N/C=C/c1ccccc1` is recorded as “inactive” (Schistosoma haematobium; motility; adults; up to 40 µM, 24 h).
For `CCC(NC(=O)CN1C(=O)N/C(=C\c2ccc(C)cc2)C1=O)C(=O)OC` (centres unmarked), the IC50 was 7.95 µM (Leishmania major; parasite growth; 24 h, intracellular, amastigote).
The MIC ratio of `CCCCCCCCCCCCCCCCCCCCCCCCCCCCCCOC(=O)/C=C/c1ccc(O)cc1` is reported as 2.5 (Nakaseomyces glabratus; clinical isolate; baseline: compound over fluconazole).
For `Cc1cc(O)c2c(c1)C(=O)c1cc3oc(=O)cc(C)c3c(O)c1C2=O`, the inhibition zone was 12 mm (Klebsiella aerogenes; microbial growth, disc diffusion; 100 µg/disc).
Under neuron excitability, `NCC(=O)N[C@H](Cc1ccccc1)C(=O)N[C@@H](Cc1ccccc1)C(=O)N[C@@H](CC(=O)O)C(=O)O` is recorded as “increased” (Aplysia; evoked spikes, electrophysiology; isolated pleural-pedal ganglia; concentration not given).
For `Oc1c(Br)cc(Br)c2nc3cc(C(F)(F)F)ccc3nc12`, the MBC was 9.38 µM (≈ 3.96 µg/mL) (Enterococcus; Calgary Biofilm Device; VRE 700221; biofilm).
For `CN[C@H](CC(C)C)C(=O)N[C@H]1C(=O)N[C@@H](CC(N)=O)C(=O)N[C@H]2C(=O)N[C@H]3C(=O)N[C@H](C(=O)N[C@H](C(=O)O)c4cc(O)cc(O)c4-c4cc3ccc4O)[C@H](O)c3ccc(c(Cl)c3)Oc3cc2cc(c3O[C@@H]2O[C@H](CO)[C@@H](O)[C@H](O)[C@H]2O[C@H]2C[C@](C)(NCc3ccc(C(=O)OCCCCCCN(Cc4ccccn4)Cc4ccccn4)cc3)[C@H](O)[C@H](C)O2)Oc2ccc(cc2Cl)[C@H]1O`, the regulation factor was 3.3 ± 1 (Bacillus subtilis; protein synthesis, measured: Hom; 168; concentration not given, 10 min, at peak effective concentration; baseline: untreated).
The IC50 of `CCOC(=O)CNC(=O)CN1C(=O)S/C(=C\c2ccc(OC)c(O)c2)C1=O` is reported as 0.31 µM (Leishmania donovani; parasite growth; 72 h, intracellular, amastigote).
For `CC1CCN(Cc2cc(N(C)C)c3c(c2O)C(=O)C2=C(O)[C@]4(O)C(=O)C(C(N)=O)=C(O)[C@@H](N(C)C)[C@@H]4C[C@@H]2C3)CC1`, the MIC was 0.25 µg/mL (≈ 0.44 µM) (Enterococcus faecalis; JH2-2(pMV158), Tet L efflux).
For `CCOC(=O)C(NC(=O)CN1C(=O)/C(=C/c2ccc([N+](=O)[O-])cc2)SC1=S)C(C)C` (centres unmarked), the IC50 was over 10 µM (Leishmania donovani; parasite growth; 72 h, intracellular, amastigote).
`CC(C)=CCc1cc2c(cc1O)OCc1c-2oc2c(CC=C(C)C)c(O)ccc12` — result for antibacterial activity: “inactive” (Enterococcus faecalis; ATCC 29212; concentration not given).
For `Cc1ccc(S(=O)(=O)Nn2c3c(cc(-c4nc5ccccc5s4)c2=O)CCCCCC3)cc1`, the selectivity index was 2.79 (human adenovirus 7; plaque; HEp-2; baseline: CC50 over IC50).
For `Cc1c2c(cc3oc(=O)cc(-c4ccc(Cl)cc4)c13)C(=O)c1cccc(O)c1C2=O`, the inhibition zone was 8 mm (Klebsiella aerogenes; microbial growth, disc diffusion; 100 µg/disc).
`CC/C(=C\c1ccc(OCC(=O)NC(C(=O)N2CCOCC2)c2ccccc2)cc1)[N+](=O)[O-]` (centres unmarked) has an inhibition of 78.1% (Leishmania donovani; parasite growth, MTT; 100 µM, 48 h, promastigote).
The MIC of `CN(C)c1cc(CN2CCOCC2)c(O)c2c1C[C@H]1C[C@H]3[C@H](N(C)C)C(O)=C(C(N)=O)C(=O)[C@@]3(O)C(O)=C1C2=O` is reported as 2 µg/mL (≈ 3.59 µM) (Enterococcus faecalis; microbial growth, broth dilution).
With `CSc1ccc(CNC(=O)c2[nH]c3cc(C)sc3c2CN(C)C)cc1` the IC50 was over 10 µM (Giardia duodenalis; parasite growth; 48 h).
`CCOC(=O)CNC(=O)CN1C(=O)S/C(=C\c2ccc(C)cc2)C1=O` has an IC50 of over 10 µM (Leishmania major; parasite growth; 24 h, intracellular, amastigote).
`Cc1cc2[nH]c(C(=O)N(C)Cc3ccco3)c(CN3CCCCC3)c2s1` has an IC50 of over 10 µM (Giardia duodenalis; parasite growth; 48 h).
For `CCOC(=O)C(CC)NC(=O)CN1C(=O)S/C(=C\c2ccc(C)cc2)C1=O` (centres unmarked), the IC50 was 5.14 µM (Leishmania major; parasite growth; 72 h, intracellular, amastigote).
With `CN(C)c1cc(CNC(C)(C)C)c(O)c2c1C[C@H]1C[C@H]3[C@H](N(C)C)C(O)=C(C(N)=O)C(=O)[C@@]3(O)C(O)=C1C2=O` the MIC was 8 µg/mL (≈ 14.7 µM) (Enterococcus faecalis; microbial growth, broth dilution).
Under “biofilm formation inhibition”, `Oc1ccccc1/C=N/NC(=S)Nc1cc(C(F)(F)F)cc(C(F)(F)F)c1` is recorded as about 50% (Nakaseomyces glabratus; ATCC 28226; 2 µg/mL).
`CC[C@H](C)[C@@H]1NC(=O)[C@H](Cc2ccc(OC)cc2)NC(=O)[C@@H](N)CSSC[C@@H](C(=O)N2CCC[C@H]2C(=O)N[C@@H](CC(C)C)C(=O)NCC(N)=O)NC(=O)[C@H](CC(N)=O)NC(=O)[C@H](CCC(N)=O)NC1=O`: “relative maximal response” 0.88 (Bufo marinus; agonist; urinary bladder; baseline: deamino-oxytocin).
Under “inhibition zone diameter”, `COc1c2c(cc3oc(=O)cc(-c4ccc(Cl)cc4)c13)C(=O)c1cc(C)cc(O)c1C2=O` is recorded as under 8 mm (Klebsiella aerogenes; 100 µg/disc).

Some of these lines once more:
With `CCOC(=O)C(C)NC(=O)CN1C(=O)S/C(=C\c2ccc(F)cc2)C1=O` (centres unmarked) the IC50 was over 10 µM (Leishmania donovani; parasite growth; 24 h, intracellular, amastigote).
`CCC1(C)CCN(Cc2cc(N(C)C)c3c(c2O)C(=O)C2=C(O)[C@]4(O)C(=O)C(C(N)=O)=C(O)[C@@H](N(C)C)[C@@H]4C[C@@H]2C3)CC1` gave an MIC of 1 µg/mL (≈ 1.68 µM) (Enterococcus faecalis; JH2-2(pMV158), Tet L efflux).
